Results pooled from the literature.
Each numbered part is a random draw from the data of one study; scales do not carry over between parts. Several values in a cell are separate wells, animals, samples, runs or records.

Block 1
SMILES: NC/C(=C\F)COc1cc(Cl)cc(-c2cc(=O)[nH]c(=S)n2CC(N)=O)c1
Target: Myeloperoxidase (MPO, Homo sapiens, UniProt P05164)
Chain of UniProt P05164 (whole entry, looked up): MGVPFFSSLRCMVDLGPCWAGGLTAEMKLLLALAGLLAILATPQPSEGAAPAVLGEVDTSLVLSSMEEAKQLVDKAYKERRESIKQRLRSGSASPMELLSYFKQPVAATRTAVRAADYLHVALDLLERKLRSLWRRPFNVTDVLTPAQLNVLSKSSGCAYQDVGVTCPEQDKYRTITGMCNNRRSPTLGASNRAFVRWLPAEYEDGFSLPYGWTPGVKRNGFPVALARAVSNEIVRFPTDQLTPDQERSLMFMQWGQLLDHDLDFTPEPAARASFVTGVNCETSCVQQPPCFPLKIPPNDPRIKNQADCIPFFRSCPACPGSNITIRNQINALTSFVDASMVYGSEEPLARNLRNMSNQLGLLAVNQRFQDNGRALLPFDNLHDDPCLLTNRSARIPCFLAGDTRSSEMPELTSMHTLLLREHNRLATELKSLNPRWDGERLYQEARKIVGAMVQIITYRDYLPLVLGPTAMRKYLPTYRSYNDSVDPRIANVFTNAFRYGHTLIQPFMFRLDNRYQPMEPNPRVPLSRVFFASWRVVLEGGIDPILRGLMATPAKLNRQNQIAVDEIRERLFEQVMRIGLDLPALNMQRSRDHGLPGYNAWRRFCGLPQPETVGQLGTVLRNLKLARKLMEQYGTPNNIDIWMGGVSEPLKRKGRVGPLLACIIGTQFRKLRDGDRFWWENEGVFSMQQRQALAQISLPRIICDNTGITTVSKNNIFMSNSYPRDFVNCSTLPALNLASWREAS
Read-out: enzyme activity
Action: inhibitor
Method: fluorescence
| conditions | inhibition |
| --- | --- |
| 300 pM | -8.41% and -2.46% |
| 0.1235 µM | 41.9% |
| 800 pM | -3.61% and -11.3% |
| 10 µM | 95.6% |
| 3.333 µM | 88% |
| 13.7 nM | 2.79% |
| 30 µM | 97.8% |

Block 2
SMILES: C[C@@H]1CN(c2ccc(-c3cc(C(=O)NCCOCCOCCOCCOCCOCCOCCNC(=O)/C=C/c4[nH]cc(C(=O)N[C@@H](CC(N)=O)c5ccc(F)c(Cl)c5)c4-c4ccc(Cl)cc4F)ccc3F)cc2NC(=O)c2ccc(F)cc2C(F)(F)F)C[C@H](C)N1C
Read-out: thermal unfolding
Method: differential scanning fluorimetry
Tested at: 5.5 µM
Reading: higher = more unfolded
DCAF1: DDB1- and CUL4-associated factor 1 (DCAF1, Homo sapiens, UniProt Q9Y4B6)
Chain of UniProt Q9Y4B6 (whole entry, looked up): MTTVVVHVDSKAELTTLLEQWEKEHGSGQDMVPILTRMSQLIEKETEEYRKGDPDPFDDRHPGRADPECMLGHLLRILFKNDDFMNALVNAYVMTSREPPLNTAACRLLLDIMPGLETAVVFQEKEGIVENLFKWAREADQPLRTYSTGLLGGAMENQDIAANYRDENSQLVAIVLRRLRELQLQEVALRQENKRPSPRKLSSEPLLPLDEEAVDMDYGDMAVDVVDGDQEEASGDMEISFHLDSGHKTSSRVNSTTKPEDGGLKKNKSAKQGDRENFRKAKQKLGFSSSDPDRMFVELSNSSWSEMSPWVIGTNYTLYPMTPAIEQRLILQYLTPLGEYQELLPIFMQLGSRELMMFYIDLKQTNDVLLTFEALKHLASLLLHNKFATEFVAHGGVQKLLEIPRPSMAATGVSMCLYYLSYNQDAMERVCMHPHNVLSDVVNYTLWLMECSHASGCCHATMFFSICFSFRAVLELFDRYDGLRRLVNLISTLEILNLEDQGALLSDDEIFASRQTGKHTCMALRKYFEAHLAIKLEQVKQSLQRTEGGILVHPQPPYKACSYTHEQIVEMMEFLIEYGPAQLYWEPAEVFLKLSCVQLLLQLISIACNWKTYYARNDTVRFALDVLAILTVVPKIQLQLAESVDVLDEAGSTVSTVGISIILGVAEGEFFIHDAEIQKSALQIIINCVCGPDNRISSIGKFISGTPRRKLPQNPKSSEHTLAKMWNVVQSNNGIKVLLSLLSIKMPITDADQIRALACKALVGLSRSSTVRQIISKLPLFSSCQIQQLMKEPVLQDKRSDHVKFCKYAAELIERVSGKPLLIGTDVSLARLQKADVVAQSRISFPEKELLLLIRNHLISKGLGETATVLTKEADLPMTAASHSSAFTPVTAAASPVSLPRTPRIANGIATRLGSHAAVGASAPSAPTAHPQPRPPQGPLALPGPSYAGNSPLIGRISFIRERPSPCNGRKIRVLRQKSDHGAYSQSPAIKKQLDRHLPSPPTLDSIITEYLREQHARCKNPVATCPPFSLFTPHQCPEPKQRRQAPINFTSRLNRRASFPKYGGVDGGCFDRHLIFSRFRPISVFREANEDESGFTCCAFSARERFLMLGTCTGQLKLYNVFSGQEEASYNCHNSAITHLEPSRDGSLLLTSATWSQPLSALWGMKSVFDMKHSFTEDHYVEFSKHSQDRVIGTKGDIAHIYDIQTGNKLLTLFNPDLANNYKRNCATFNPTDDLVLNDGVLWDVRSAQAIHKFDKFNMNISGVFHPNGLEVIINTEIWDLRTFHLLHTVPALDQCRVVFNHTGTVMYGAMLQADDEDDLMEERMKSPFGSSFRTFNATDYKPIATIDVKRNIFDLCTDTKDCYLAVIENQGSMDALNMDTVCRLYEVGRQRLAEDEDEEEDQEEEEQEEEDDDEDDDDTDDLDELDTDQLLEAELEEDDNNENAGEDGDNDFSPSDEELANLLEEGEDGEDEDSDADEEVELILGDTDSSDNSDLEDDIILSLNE
WDR5: WD repeat-containing protein 5 (WDR5, Homo sapiens, UniProt P61964)
| target | conditions | SYPRO Orange fluorescence |
| --- | --- | --- |
| DCAF1 | 75.21 °C | 43600 a.u. |
| DCAF1 | 64.81 °C | 53700 a.u. |
| WDR5 | 26.2 °C | 13200 a.u. |
| WDR5 | 73.81 °C | 43500 a.u. |
| WDR5 | 69.41 °C | 25400 a.u. |
| WDR5 | 82.61 °C | 65300 a.u. |
| WDR5 | 69.21 °C | 24800 a.u. |
| WDR5 | 63.41 °C | 15500 a.u. |
| WDR5 | 35 °C | 13900 a.u. |
| DCAF1 | 44.6 °C | 14400 a.u. |
| WDR5 | 45.2 °C | 14600 a.u. |

Block 3
Compound: Cc1ncsc1-c1ccc(C(CO)NC(=O)C2CC(O)CN2C(=O)C(C(C)C)n2cc(-c3ccc(COc4c(-c5c(C)c(F)cc6[nH]ncc56)c(C5CC5)cc5c(N6CC7CC6CN7)nc(OC6CCOCC6)nc45)cc3)nn2)cc1 (stereo not drawn)
Read-out: cell growth or viability
Method: ATP luminescence
Time: 6 days
| cell line | conditions | viability |
| --- | --- | --- |
| ASPC1 | 0.1 µM | 20.2% and 25.1% and 26.1% and 36.3% |
| PK-59 | 10 µM | 2.55% and 1.61% and 1.46% and 0.789% |
| A-375 | 300 pM | 87.7% and 84.9% and 89.6% and 89.2% |
| GP2d | 300 pM | 61.7% and 83% and 74.4% and 61% |
| NCI-H1299 | 3 µM | 119% and 123% and 130% and 109% |
| A-375 | 1 µM | 85.1% and 92.9% and 85.9% and 86% |
| NCI-H358 | 300 pM | 105% and 99.9% and 98.5% and 83.7% |
| GP2d | 30 nM | 27% and 29.2% and 32.3% and 30.6% |
| A-375 | 3 µM | 85.5% and 93.3% and 83.2% and 94.9% |
| PSN1 | 0.1 µM | 101% and 98.9% and 81.2% and 95.5% |

Block 4
Species: female CD-1 mouse
Matrix: plasma
Route: oral
Dose: 10 mg/kg
| SMILES | half-life |
| --- | --- |
| Cc1ccc(O)c(C)c1-c1cnc2[nH]c(-c3cnc(N4CCC(CN5CCN(c6ccc(NC7CCC(=O)NC7=O)cc6F)CC5)CC4)nc3)cc2c1C#N (stereo not drawn) | 3.3 h |
| Cc1ccc(O)c(C)c1-c1cnc2[nH]c(-c3cnc(N4CCC(CN5CCN(c6ccc7c(c6)CN(C6CCC(=O)NC6=O)C7=O)CC5)CC4)nc3)cc2c1C#N (stereo not drawn) | 1.5 h |
| Cc1ccc(O)c(C)c1-c1cnc2[nH]c(-c3cnc(N4CCC(CN5CCC(c6ccc(NC7CCC(=O)NC7=O)cc6F)CC5)CC4)nc3)cc2c1C#N (stereo not drawn) | 3 h |
| Cc1ccc(O)c(C)c1-c1cnc2[nH]c(-c3cnc(N4CC5(CC(CN6CCN(c7ccc(NC8CCC(=O)NC8=O)cc7F)CC6)C5)C4)nc3)cc2c1C#N (stereo not drawn) | 1.6 h |
| Cc1ccc(O)c(C)c1-c1cnc2[nH]c(-c3cnc(N4CCC(CCN5CCN(c6ccc(NC7CCC(=O)NC7=O)cc6F)CC5)CC4)nc3)cc2c1C#N (stereo not drawn) | 3.4 h |

Excerpt of the above (block 2):
| target | conditions | SYPRO Orange fluorescence |
| --- | --- | --- |
| WDR5 | 63.41 °C | 15500 a.u. |
| WDR5 | 35 °C | 13900 a.u. |
